# Experimental data from different studies.
# A part holds a random share of what one study measured.

# Sample 1
# Target: Sal-like protein 4, full length isoform B (SALL4, Homo sapiens, UniProt Q9UJQ4-2, residues 1-616)
# Technique: universal PBM
# Molecule type: double-stranded DNA, one strand shown
# Medium: in vitro
# Tested at: not given
# Notes: 8-mer, flanks averaged, mean of replicates
# Reading: higher = stronger binding
# Target sequence (chain): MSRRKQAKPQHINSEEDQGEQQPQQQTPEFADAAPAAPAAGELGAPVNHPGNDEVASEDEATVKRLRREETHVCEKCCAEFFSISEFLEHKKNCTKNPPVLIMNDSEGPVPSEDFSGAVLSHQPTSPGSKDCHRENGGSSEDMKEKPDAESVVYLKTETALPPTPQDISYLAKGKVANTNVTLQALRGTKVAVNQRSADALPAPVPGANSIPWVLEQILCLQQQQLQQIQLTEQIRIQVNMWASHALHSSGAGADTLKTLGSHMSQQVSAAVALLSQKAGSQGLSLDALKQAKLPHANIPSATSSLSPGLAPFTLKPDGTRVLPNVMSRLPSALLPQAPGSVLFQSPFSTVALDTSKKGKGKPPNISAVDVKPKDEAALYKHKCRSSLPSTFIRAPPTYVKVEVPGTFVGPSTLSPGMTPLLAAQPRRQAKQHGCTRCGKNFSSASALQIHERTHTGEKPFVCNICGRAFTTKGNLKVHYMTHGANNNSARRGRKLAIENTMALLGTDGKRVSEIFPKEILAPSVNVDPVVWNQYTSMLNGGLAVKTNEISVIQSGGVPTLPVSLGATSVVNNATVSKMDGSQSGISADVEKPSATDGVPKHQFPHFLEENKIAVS
Oligonucleotide,E-score
GGTCAAAC,-0.0657
TTCCCGAA,-0.0213
GTGGTACA,-0.00262
GACACGGC,-0.181
ATACCTTA,0.257
CATTATAG,0.188
AAAGATAC,0.0457
TGAATGCA,0.132
CAGAGAAG,-0.127
GAGCGCAC,-0.241
AGAGCCCT,-0.156
AGTCGTAT,0.14
CCTAGTAG,-0.147
CGAATATC,0.137
ATGACTGG,-0.0781
AGACCCCG,-0.181
AGACCACG,-0.269
TCCGTTAA,-0.0597
TGCTACAA,0.189
TGAATTCA,0.221
AAAACCAG,-0.0474
GTACATAA,0.285

# Sample 2
# Target: Fragile X messenger ribonucleoprotein 1, C-terminal low-complexity region (Fmr1, Mus musculus, UniProt P35922)
# Technique: RNA Bind-n-Seq
# Molecule type: RNA
# Medium: in vitro
# Tested at: 200 nM
# Notes: whole 134-nt RNA, ends assumed
# Added: 150 mM LiCl
# Reference: input library
# Reading: higher = stronger binding
# Each molecule: 7-deaza-guanosine replaces G
# Constant ends, left off below: GGGAGUUCUACAGUCCGACGAUC … UGGAAUUCUCGGGUGUCAAGG
Oligonucleotide,log2 enrichment
UCCUGUGCUACACAUCGUAUGUACCGAAUCAAAUUUUUUUAAACCCCCAAACCCCCAAAAAAGUAUUAUGUUACGCCGUUCGGAUCUGCA,1.42
CCUGUGCUACACAUCGUAUGUACCGAAUCGGGGUUUUUGGGGUUUUUUUGGGGAAAGGGGAAAGUAUUAUGUUACGCCGUUCGGAUCUGC,0.127
AGUCCUGUGCUACACAUCGUAUGUACCGAAUCGGGUUUGGGAAAAAAAGGGAAAGGGAAAGUAUUAUGUUACGCCGUUCGGAUCUGCACU,-1.47
UCAAGUCCUGUGCUACACAUCGUAUGUACCGAAUCGGGUUGGGGUUGGGUUGGGAAAGUAUUAUGUUACGCCGUUCGGAUCUGCACUUCC,-0.774
GCAGGAAGUCAAAACAAAUGGAAAUGCUUCGGAUAGUGGCAGGGGUGGGGGUUGCUAAGGAAAGGGUGGGAUGGGAGUGGGUAAAGAGUU,1.57
GCAGGAAGUAAAAACAAAUGGAAAUGCUUCGGAUAGUGGCAGGGGUGGGGGUUGCUAAGGAAAGGGUGGGAUGGGAGUUGGUAAAGAGUU,1.22
UGGCGCUGGUGGCAUGCGGGGAGGAAGAGGUGGCCUCAUGGAUCGUGGUGGUCCCGGUGGAAUGUUCAGAGGUGGCCGUGGUGGAGACAG,0.101
UCCUGUGCUACACAUCGUAUGUACCGAAUCGGGGAAAAAAGGAAAAAAGGGAAAAAAGGAAAGUAUUAUGUUACGCCGUUCGGAUCUGCA,0.108
CACAGACAACACGCACCCACACAGAAACAGAGGGAAGGGGUUGGGAUGGGGACAGGGUGCACAGCAGGGCGGGGUAGGACCCCAGCCCCU,0.816
CACAGACAACACGCACCCACACAGACACAGAGGGAAGGGGUUGGGAUGGGGACAGGGUGCACAGCAGGGGGGGGUAGGACCCCAGCCCCU,1.38
CUCAAGUCCUGUGCUACACAUCGUAUGUACCGAAUCGGCCGGGGCCGGCCGGGAAAGUAUUAUGUUACGCCGUUCGGAUCUGCACUUCCA,0.14

# Sample 3
# Target: RNA binding protein fox-1 homolog 2, RRM domain, GST-SBP tag (RBFOX2, Homo sapiens, UniProt O43251-10, residues 100-194)
# Technique: RNA Bind-n-Seq
# Molecule type: RNA
# Medium: in vitro
# Tested at: 365 nM
# Notes: natural RNA segment, single round, ends assumed
# Reference: no-protein control
# Reading: higher = stronger binding
# Constant ends, left off below: GGGAGUUCUACAGUCCGACGAUC … UGGAAUUCUCGGGUGCCAA
# Target sequence (chain): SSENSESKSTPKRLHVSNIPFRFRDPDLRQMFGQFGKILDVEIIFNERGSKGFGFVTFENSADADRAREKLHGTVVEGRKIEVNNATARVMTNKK
Oligonucleotide,RBNS enrichment (R)
CCCAUGUGCUCGGUGUUCAGUGGUGUAUAUUUCUUCUCCCAGACAUGGGGCACACGCCCCAAGGGACAUGAUCCUCUCCUUAGUCUUAGCUCAUGGGGCUCUUUAUAAGG,0.458
UUGUUGUUCUGUGUGGAGCGUGAGGUGAGAAAACCCCUCUGAAAAGAUGUGGUCGGGGCCACGCUUCCCACUGGUUCUGCAGUGAGGAGUUGGGGCGGGUGAGCCAAAGC,0.358
UCAUGUAGCCCAGGCUGGCCUUGAGCUCUGUAUGUAUCUGAGGCUAGUCCUGAAUUCCUAACUCUCCUGAGUGCUGAGAUUGUCAAGCACUGCAUUAAACCUGGCUGGUC,1.17
UGGAAGAUGAGCUCAAGGGGAGGACAGGCCUUGGGAGGGCAGGCGUUUGCAUUAAUAUCAAGGCAAAAAGCAUUCAUAGAUACAUGCAUCUGAUUUGGUAUUGUGAUUUA,1.52
GCUGGAAAAAUUAAGGGGAAAAGAGAUUAAGUGGUCCCCAAUGGAACACAGCUGUCUUAUGCAGGGCUCACAGUUACCAUGUUCAGUACAUUGUUAAAGUAACUUGGCUU,0.948
CUGUUUGGAUUUAUAUCCCUCUAAUGUUCUCCUUUAAUUUCACAUGAAAAAAAAAUCUCCUGUAUUUUUUUCAGUUAGUGGGAGAGCAGCAGAAAUAGAUAGAUGUGCUG,0.438
GUUGAACGGUAUGCAUGGUGAAAGGAAGCUGUCUGCCUCUGACCUUUCCCCAGGCUAUGAAAAGGAAAGUGAGGGAGCGAUCAUAGUGCUGAUUAUGUCUUCACAGACUG,4.71
UAUAUUUAAGUGGUAAUGAAAAAUAGUAAUCAUAGUAAAACGCAACAAGAAGAAAACCAACCCAAACCAGUGAAGUUUUUUAGAACCUUUAGAAGGGUGGUCUUUAUUCA,1.22
CACAGAUCGGAAUAUGAAGUUCUUUAUGGUUCCAUAGCCUAGGUGUUUCUUGGGGGCAUUUGGGAGGCCAGGAGCAUCGUGGGCAGAUGAGAAGCAACGUUAGAAGGUUU,0.957
UUUUAUAUCUUUGAAUUAUGUGAUUAGAUAUUAAUUUAAUGAUAAAACCACUCUGAAAGCUCUUCUCCUUCUGGGUGUUUGAGGUCUGGCUGGGGGGCAAAAGUGGAUGG,0.518
UGUUUUUUUAGACAAGGCUAAACCUGAAUGACUCUACGUAUCUAUAGUUUCACUGCUCAUAUACCAGCUGCUACAAGAAAAACCAUGACUUGUAAGUUUGUCUUUACUCC,0.471
CCUGCAACCCUAGCAAUACCAUGCUCGCUGGAGAGGCUCAGCUGCCUGCUUCUGGCCUGCCUGUGUCUGCUGCCGAGAAGCCCGUGCCCCCGGGAGGGCUGCCGCACUGC,0.304

# Sample 4
# Target: Centromere-binding protein 1, full length, N-terminal tag (CBF1, Saccharomyces cerevisiae, UniProt P17106, residues 1-351)
# Sequence of UniProt P17106 (whole entry, looked up): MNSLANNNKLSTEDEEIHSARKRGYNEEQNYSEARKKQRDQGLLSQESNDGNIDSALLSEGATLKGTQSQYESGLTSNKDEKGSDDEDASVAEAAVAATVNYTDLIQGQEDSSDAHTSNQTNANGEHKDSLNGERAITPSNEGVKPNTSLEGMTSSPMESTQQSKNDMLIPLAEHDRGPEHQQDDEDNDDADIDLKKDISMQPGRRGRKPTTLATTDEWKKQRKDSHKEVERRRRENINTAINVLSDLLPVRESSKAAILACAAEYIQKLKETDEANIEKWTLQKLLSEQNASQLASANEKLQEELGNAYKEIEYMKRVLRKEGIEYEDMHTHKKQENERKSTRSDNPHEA
# Technique: protein-binding microarray
# Molecule type: double-stranded DNA, one strand shown
# Medium: in vitro
# Tested at: 0.8 µM
# Notes: whole 60-bp probe, no competitor
# Reading: higher = stronger binding
# Constant ends, left off below: … GTCTTGATTCGCTTGACGCTGCTG
Oligonucleotide,fluorescence intensity [a.u.]
TGTACGAAGCTATGTCACGTGATTATAGTAGTTAGG,39300
CTAGAATTTGAATAGAACGTGACTCAACAGAAATTC,2430
GAAAGGGTGTATTATCACATGCAGCCTTTGTTTTAG,1120
CTATTATCTCTTAGATATCACATGTGATTACCCTTC,4710
CTATACATATACATACACGCAATGAGAACCCTATTC,542
TGTACGAAGCTATATAACCACGTTATAGTAGTTAGG,618
GAATAAATTCTGCAGAACGTGAAAGGTTCGATTTAG,581
CTAGTAACTTAGTATCACATGTATTAGTATTAATTC,1960
CTACCCAAAAATCGTCACCTTTGTGCGGCGAGCTTC,496
GAACAGGATTCAAATGGTGACGTTAAAAACATGTAG,538
CTATTTCACAAAAAACATGTGATATGCTTTCAATTC,2290
CCTAACTACTATAGCGAGCACGTATAGCTTCGTACA,531
GAATGTATAGGCAACCACGCGTTACAAAGTAAGTAG,606
GAAATATCGATATACATCATGATGAGAGCGCCTTAG,505
GAATCTCTCTTTTCCCACGTGCTCCGCTCTCTTTAG,3030
GAATATTGAAACCAAAACGTGCTATTTACTGTGTAG,626
CTAGAAATTTTACGTGACACCATCATTTTACTTTTC,562

# Repeated from above (sample 1):
Oligonucleotide,E-score
AAAGATAC,0.0457
CCTAGTAG,-0.147
TGAATGCA,0.132
TGAATTCA,0.221
CGAATATC,0.137
